Experimental data collected from several papers.
Compare with care: the assays were run in different laboratories. ± marks the error that the study gave.

CCCCCOc1ccc(-c2cc(-c3ccc(C(=O)N[C@H]4C[C@@H](O)[C@@H](O)NC(=O)[C@@H]5[C@@H](O)[C@@H](C)CN5C(=O)[C@H]([C@H](O)CC(N)=O)NC(=O)[C@H]([C@H](O)[C@@H](O)c5ccc(O)c(OS(=O)(=O)O)c5)NC(=O)[C@@H]5C[C@@H](O)CN5C(=O)[C@H]([C@@H](C)O)NC4=O)cc3)no2)cc1
Tmax (young infants at least 1000 g, plasma; intravenous infusion, 7 mg/kg/day, day 4, median, 1 h infusion, repeat dosing): 1.1 h

CN1C(=CC=CC=CC2=[N+](CCCCCC(=O)NCCCC[C@H](NC(=O)[C@H](CCCCNC(=O)COCCOCCOCCNC(=O)[C@H](Cc3ccccc3)NC(=O)[C@H](CCCNC(=N)N)NC(=O)[C@@H]3CCCN3C(=O)[C@H](CC(N)=O)NC(=O)[C@@H]3CCCN3C(=O)[C@H](CO)NC(=O)[C@@H](N)CCCCN)NC(=O)COCCOCCOCCNC(=O)[C@H](CCC(=O)O)NC(=O)[C@H](CCCNC(=N)N)NC(=O)[C@@H]3CCCN3C(=O)[C@H](CCCCN)NC(=O)[C@H](Cc3c[nH]cn3)NC(=O)[C@H](CCCNC(=N)N)NC(=O)[C@@H](N)CCC(N)=O)C(N)=O)c3ccc4ccccc4c3C2(C)C)C(C)(C)c2c1ccc1ccccc21
Tmax (nude mice, OE33 xenograft, tumour; intravenous, 300 µM): 2 h

Cc1cc(C(C#N)c2ccc(Cl)cc2)c(Cl)cc1NC(=O)c1cc(I)cc(I)c1O (stereo not shown)
Tmax (HPLC, non-compartmental; Corriedale lambs, parasitized, plasma; oral, 10 mg/kg): 57.1 ± 8.16 h

CNC(=O)c1ccc(-c2cnn3ccc(C(=O)N(C)c4ccc(Cl)c(C(=O)OC)c4)cc23)cc1
Tmax (beagle dogs, both sexes, plasma; oral, 50 mg/kg/day, day 1): 0.917 h

CC[C@@]1(O)C(=O)OCc2c1cc1n(c2=O)Cc2cc3c(CN(C)C)c(O)ccc3nc2-1
Tmax (human, plasma; oral, 8 mg, patients): 1.78 h

O[C@H]1CCCN[C@@H]1CCCn1cnc2c(Cl)c(Cl)ccc21
Tmax (human, plasma; oral, 100 mg, single dose, healthy volunteers): 1.79 h

O=c1[nH]c(Cc2ccccn2)nc2c1cnn2C1CCOCC1
Tmax (healthy men, extensive metabolizers, plasma; oral, 350 mg single dose, tablet, median): 0.75 h

C#C[C@]1(O)CC[C@H]2[C@@H]3CCC4=CC(=O)CC[C@@H]4[C@H]3CC[C@@]21CC
Tmax (HIV-positive women, ritonavir arm, serum; oral, dose not given, steady state, median, with: ritonavir): 2 h

CC[C@H](C)[C@H](NC(=O)[C@@H](N)CCCNC(=N)N)C(=O)N[C@H](C(=O)N1CCC[C@H]1C(=O)N[C@@H](C)C(N)=O)C(C)C
Tmax (healthy volunteers, both sexes, plasma; intravenous infusion, 3.0 mg/kg daily, day 7, multiple ascending dose): 0.0717 ± 0.00833 h

c1cc([C@H]2CC[C@]3(CC2)OO[C@]2(O3)C3CC4CC(C3)CC2C4)ccc1OCCN1CCOCC1
Tmax (human, plasma; oral, 800 mg, single dose, fed): 5 h

Repeated from above:
O[C@H]1CCCN[C@@H]1CCCn1cnc2c(Cl)c(Cl)ccc21
Tmax (human, plasma; oral, 100 mg, single dose, healthy volunteers): 1.79 h
